# Measured values collected from several papers.
# Lines come from different studies, so protocols differ. ± marks the error that the study gave. Ends that are not written are not given here. * marks the point of attachment.
# Cell line: MDA-MB-231
Molecule,test,conditions,scale,endpoint,value
COC(=O)c1c(-c2ccc(OC)cc2)c2n(c1C(=O)OC)CCn1cccc1-2,"cell growth or viability, MTT",48 h,,IC50,82.5 µM
Cn1cnc(N)c2ncnc1-2,MTT,"1 mM, 1 h pretreatment, together with: LYN-1604 2.0 µM",reference: LYN-1604 alone,viability,increased
COc1ccc(N2CCN(CC(=O)Nc3ccc(C4=NN(C(C)=O)C(c5ccc(Cl)cc5Cl)C4)cc3)CC2)cc1 (centres unmarked),"cell growth or viability, MTT",,,IC50,51.6 µM
C#C[C@@]1(O)[C@@H](CO)O[C@@H](n2cc(I)c3c(N)ncnc32)[C@@H]1O,SRB,48 h,,GI50,0.186 ± 0.02 µM
O=c1[nH]nc(O)c2c(-c3cccc([N+](=O)[O-])c3)c3n(c12)CCn1cccc1-3,"cell proliferation, MTT",48 h,,IC50,13.14 ± 0.005 µM
CN(Cc1cccc(CN(C)c2ccc(F)cc2)n1)c1ccc(F)cc1,Matrigel invasion,"100 nM, 22 h, together with: CXCL12 200 ng/mL",,invasion inhibition,< 50%
CSc1nccc(NCc2ccc(CNc3ncc(F)cn3)cc2)n1,cell invasion (Matrigel),"10 nM, together with: CXCL12 200 ng/mL",,inhibition,> 60%
COC(=O)c1c(-c2ccccc2)c2n(c1C(=O)OC)CCn1cccc1-2,"cell growth or viability, MTT",48 h,,IC50,71.1 µM
COc1ccc2oc(-c3ccc4nc(N)oc4c3)c/c(=N\c3ccccc3NC(=O)CCN)c2c1,"cell growth or viability, CCK-8",1 µM,,inhibition,70.7%
Fc1cnc(NCc2ccc(CNc3ncc(F)cn3)cc2)nc1,cell invasion (Matrigel),"10 nM, together with: CXCL12 200 ng/mL",,inhibition,> 75%
COc1cccc2c1C(=O)c1c(O)c3c(c(O)c1C2=O)C[C@@](O)(C(=O)CO)C[C@@H]3O[C@H]1C[C@H](N)[C@H](O)[C@H](C)O1,fluorescence microscopy,"7.5 µM, together with: endocytosis inhibition (low temperature or sodium azide)",,cellular uptake,decreased
COC(=O)c1c(-c2cccc(Cl)c2)c2n(c1C(=O)OC)CCn1cccc1-2,"cell growth or viability, MTT",48 h,,IC50,75.3 µM
CCCCCCCC(=O)NCCCC[C@H](N)C(=O)NCCCNCCCCNCCCN,cell growth,"6 days, together with: DFMO 5.0 mM, spermidine 0.5 µM, aminoguanidine 1.0 mM",,EC50,1.1 µM
COc1ccc(N2CCN(CC(=O)Nc3ccc(C(=O)C=Cc4ccc(C)cc4)cc3)CC2)cc1,"cell growth or viability, MTT",,,IC50,77.2 µM
Dnp-KEQNPIYWARYADWLFTTPLLLLELALLVDADEGTG (DNP-labelled; Dnp = O=[N+]([O-])c1ccc(*)c([N+](=O)[O-])c1),ADCC,"0.1 µM, 4 h, pH 7.4, effector:target 50:1, together with: anti-DNP antibody, PBMC",,cell lysis,20%
Fc1nccc(NCc2ccc(CNc3ccnc(F)n3)cc2)n1,cell invasion (Matrigel),"10 nM, together with: CXCL12 200 ng/mL",,inhibition,> 60%
Cc1cccc(-c2c3n(c4c(=O)[nH]nc(O)c24)CCn2cccc2-3)c1,"cell growth or viability, MTT",48 h,,IC50,65.9 µM
C[C@]12CCc3c(ccc4ccc(O)cc34)[C@@H]1C[C@@H](O)C2,cell growth,,,GI50,~0.8 µM
O=c1[nH]nc(O)c2c(-c3ccccc3)c3n(c12)CCn1cccc1-3,"cell growth or viability, MTT",48 h,,IC50,87.3 µM
COc1cccc2c1C(=O)c1c(O)c3c(c(O)c1C2=O)C[C@@](O)(C(=O)CO)C[C@@H]3O[C@H]1C[C@H](N)[C@H](O)[C@H](C)O1,"cell growth or viability, MTT",48 h,,EC50,3.28 µg/mL

# Excerpt of the above:
Molecule,test,conditions,scale,endpoint,value
O=c1[nH]nc(O)c2c(-c3ccccc3)c3n(c12)CCn1cccc1-3,"cell growth or viability, MTT",48 h,,IC50,87.3 µM
